Published values pooled from the literature.
Every numbered part comes from another study and shows a few of its results, in no order. Changes are numbered by the printed parent chain.

Study 1 — method: protein binding microarray; molecule type: double-stranded DNA, one strand shown; medium: in vitro; concentration: not given; relative to: not given; reading: higher = stronger binding
Target: Histone acetyltransferase KAT6A, both winged helices, GST fusion (KAT6A, Homo sapiens, UniProt Q92794, residues 1-181)
Setting: 8-mer, flanks averaged, mean of 2 arrays, mostly near background
Residues (chain): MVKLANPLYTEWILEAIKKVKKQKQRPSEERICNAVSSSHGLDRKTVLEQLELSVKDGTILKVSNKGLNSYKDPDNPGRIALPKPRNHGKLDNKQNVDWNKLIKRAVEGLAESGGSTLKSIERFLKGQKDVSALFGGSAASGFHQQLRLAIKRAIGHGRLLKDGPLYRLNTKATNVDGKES
| Strand | E-score |
| --- | --- |
| CATCTAGG | -0.222 |
| GCGGTACC | 0.278 |
| CGGTTATA | 0.0895 |
| CCACGCGG | 0.232 |
| AAGCTCGA | -0.137 |
| TATGTTGA | 0.0521 |
| TGTGAACA | -0.0366 |
| AGAGTCTC | -0.195 |

Study 2 — target: CCNE1, cyclin fold, Cln2 fusion (human); method: yeast growth competition, sequencing; medium: yeast; setting: strong parent motif; relative to: not given; reading: higher = stronger binding
Starting sequence: PKN2 docking peptide (human); VSAVRKLDFSDTM
| Change | normalised enrichment score |
| --- | --- |
| D8V | 5.1 |
| D8T | 5.05 |
| T12D | 5.42 |
| K6L | 2.76 |
| L7H | 0.189 |
| A3Y | 4.82 |
| A3D | 0.0429 |
| V4W | 1 |
| L7D | -0.0812 |
| D8K | 3.78 |
| V4P | 0.717 |
| D8M | 3.81 |
| F9W | 2.41 |
| S2N | 5.49 |

Study 3 — method: competition protein-binding microarray; molecule type: double-stranded DNA, one strand shown; medium: in vitro; concentration: 2 µM; together with: Cbf1 competitor, 0.05 µM; reading: higher = stronger binding; constant ends, left off below: … GTCTTGATTCGCTTGACGCTGCTG
Target: Phosphate system positive regulatory protein PHO4, full length, GST-tagged (PHO4, Saccharomyces cerevisiae, UniProt P07270, residues 1-312)
Setting: whole 60-bp probe, lowest competitor level
Residues (chain): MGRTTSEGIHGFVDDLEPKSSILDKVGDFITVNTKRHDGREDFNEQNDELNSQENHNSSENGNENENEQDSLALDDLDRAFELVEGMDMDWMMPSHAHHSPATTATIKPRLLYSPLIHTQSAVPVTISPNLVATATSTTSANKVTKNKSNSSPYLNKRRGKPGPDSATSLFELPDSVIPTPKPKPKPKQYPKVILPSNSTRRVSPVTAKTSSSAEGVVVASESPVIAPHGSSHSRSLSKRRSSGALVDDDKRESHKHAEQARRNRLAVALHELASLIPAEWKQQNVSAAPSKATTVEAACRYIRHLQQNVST
| Strand | fluorescence intensity |
| --- | --- |
| CTAACGAAGGTTTGATCGGTGGGTGACAAGCCAAGT | 3620 a.u. |
| CCTGGAGAACCGGGAGGCGTGGGTAAGTTGCTTGAA | 7900 a.u. |
| CAGATTAAGCCCCGCCACGTGGTGGCCAAGCCAGCT | 15600 a.u. |
| AAAGCGGTAATTTGTGATGTGGGTGCAGATATCTAT | 4790 a.u. |
| ATAGCCGAAAGAGGAAATGTGATATGCCCACCTGTG | 6040 a.u. |
| CAATTTTGTGGTCGGATCGTGCTTTTGCCACCCGCG | 8140 a.u. |
| TACCCCATAATTTTGCACGTGACGGGTTTGTATTAC | 16100 a.u. |
| AGAGGGCATCTCAGCCATGTGTTCTCCAGCTCATTA | 9230 a.u. |
| CTACGGAAAAGGCCACACTTTTTTTCTGCAAGAAAA | 4430 a.u. |
| CGCCATTATAGTGTAAACGTGAGGTACGGATATCGA | 9000 a.u. |
| GTCAGAGTCGTTGTTCTCGTGCTTTTCCGTAGCCTC | 8370 a.u. |
| ATCTAATTTTGCGACCAAGTAGTTCTTAAACAAGTC | 3260 a.u. |
| CTAATACCCGGAAGTCGCGTGATGGTTTTTTTTTTC | 6880 a.u. |

Mixed results
| Molecule | target | test | test system | conditions | how to read | quantity | result |
| --- | --- | --- | --- | --- | --- | --- | --- |
| PhoQ, residues 284 288 289 292 302 303 AEGLLW | PhoP, residues 12 14 15 18 19 LQHIR (Escherichia coli, UniProt P23836) | Sort-seq, refers to: YFP reporter | E. coli | PhoQ-PhoP variant library, together with: 10 µM Mg2+ | relative to: high Mg2+ state, higher = stronger signaling | fold induction | 2.91 |

Repeated from above (study 2):
| Change | normalised enrichment score |
| --- | --- |
| A3D | 0.0429 |
| D8V | 5.1 |
| V4W | 1 |
| D8K | 3.78 |
